# Published values pooled from the literature.
# Compare with care: the assays were run in different laboratories. ± gives the spread as reported.
# Cell line: Vero
SMILES,technique,matrix,time,CC50
CC(C)CCCCCCCCC[C@@H]1CC(=O)N[C@@H](CCC(=O)O)C(=O)N[C@@H](CC(C)C)C(=O)N[C@H](CC(C)C)C(=O)N[C@@H](C(C)C)C(=O)N[C@@H](CC(=O)O)C(=O)N[C@H](CC(C)C)C(=O)N[C@@H](CC(C)C)C(=O)O1,MTT,,24 h,0.61 ± 0.1 µg/mL
CC(C)(C)[C@H](NC(=O)C(F)(F)F)C(=O)N1C[C@H]2[C@@H]([C@H]1C(=O)N[C@H](C#N)C[C@@H]1CCNC1=O)C2(C)C,,,,> 100 µM
CC(=O)OC[C@H]1O[C@@H](n2ccc(=O)[nH]c2=O)[C@H](I)[C@@H](OC(C)=O)[C@@H]1OC(C)=O,MTT,DMEM with 10% FBS,72 h,> 50 µM
CCCCCOc1ccc(-c2ccc(-c3ccc(C(=O)N[C@H]4C[C@@H](O)[C@@H](O)NC(=O)[C@@H]5[C@@H](O)[C@@H](C)CN5C(=O)[C@H]([C@@H](C)O)NC(=O)[C@H]([C@H](O)[C@@H](O)c5ccc(O)cc5)NC(=O)[C@@H]5C[C@@H](O)CN5C(=O)[C@H]([C@@H](C)O)NC4=O)cc3)cc2)cc1,MTT,,24 h,42 ± 3 µg/mL
CC(C)(C)NCC(O)COc1cccc2c1CCC(=O)N2 (stereo not drawn),MTT,,72 h,133 to 400 µM
CC[C@H](C)C[C@H](C)CCCCCCCCC(=O)N[C@H]1C[C@@H](O)[C@@H](NCCN)NC(=O)[C@@H]2[C@@H](O)CCN2C(=O)[C@H]([C@H](O)CCN)NC(=O)[C@H]([C@H](O)[C@@H](O)c2ccc(O)cc2)NC(=O)[C@@H]2C[C@@H](O)CN2C(=O)[C@H]([C@@H](C)O)NC1=O,MTT,,24 h,> 200 µg/mL
O=c1cnn([C@@H]2O[C@H](COCc3ccccc3)[C@@H](OCc3ccccc3)[C@H](OCc3ccccc3)[C@H]2I)c(=O)[nH]1,MTT,DMEM with 10% FBS,72 h,> 50 µM
COc1ccccc1OCCNCC(O)COc1cccc2[nH]c3ccccc3c12 (stereo not drawn),MTT,,72 h,29.2 µM
Cc1cn([C@@H]2O[C@H](COCc3ccccc3)[C@@H](OCc3ccccc3)[C@H](OCc3ccccc3)[C@H]2I)c(=O)[nH]c1=O,MTT,DMEM with 10% FBS,72 h,> 50 µM
CCCCCCC#Cc1cncc(-c2nnc(SCc3cc([N+](=O)[O-])cc([N+](=O)[O-])c3)n2C)c1,,,72 h,> 100 µM
CCC(CC)COC(=O)[C@H](C)N[P@](=O)(OC[C@H]1O[C@@](C#N)(c2ccc3c(N)ncnn23)[C@H](O)[C@@H]1O)Oc1ccccc1,,,,> 100 µM
O=c1ccn([C@@H]2O[C@H](COCc3ccccc3)[C@@H](OCc3ccccc3)[C@H](OCc3ccccc3)[C@H]2I)c(=O)[nH]1,MTT,DMEM with 10% FBS,72 h,> 50 µM
